Published values from different studies.
RET: Proto-oncogene tyrosine-protein kinase receptor Ret (RET, Homo sapiens, UniProt P07949)
RET M918T: Proto-oncogene tyrosine-protein kinase receptor Ret (RET, Homo sapiens, UniProt P07949, M918T)
RET V804L: Proto-oncogene tyrosine-protein kinase receptor Ret (RET, Homo sapiens, UniProt P07949, V804L)
RET V804M: Proto-oncogene tyrosine-protein kinase receptor Ret (RET, Homo sapiens, UniProt P07949, V804M)

SMILES | target | assay | setting | how to read | remaining binding [%]
CC(=O)N1c2ccc(-c3ccc(CNC(=O)c4cn5cc(-c6cnc(N)nc6)nc(N6CCOCC6)c5n4)cc3)cc2CC[C@@H]1C | RET | KINOMEscan | 10 µM | – | 60
CCN1CCN(Cc2ccc(NC(=O)c3ccc(C)c(NC(=O)c4cncc(-c5cccs5)c4)c3)cc2C(F)(F)F)CC1 | RET M918T | binding, competition with immobilised ligand | 1 µM | – | 0.1
C=CC(=O)N1CCc2ccc(-n3c(=O)ccc4cnc5ccc(-c6cnn(C)c6)cc5c43)cc21 | RET V804L | KINOMEscan | 1 µM | relative to: DMSO control | 94
Cc1cc(NC(=O)[C@H](O)c2cc(F)cc(F)c2)ccc1-c1cnc(N)c(C(=O)NC(C)C)c1 | RET M918T | binding, competition with immobilised ligand | 0.1 µM | – | 73
COc1c(Cl)cccc1Nc1c(-c2ccncc2C#C[C@@]2(C)CCCN2C(=O)/C=C/CN(C)C)[nH]c2c1C(=O)NCC2 | RET V804M | binding, competition with immobilised ligand | 3 µM | – | 93
CC(C)=CC1OC(C)(C)C2C=C3C(=O)C(Cl)=CC(O)C3C3C(O)C4OC4C(=O)C132 (stereo not drawn) | RET V804L | cell-free assay, competition with immobilised ligand | 10 µM | – | 91
C=CC(=O)N1CCCC(n2c(=O)c3ncccc3n(Cc3ccc(Oc4ccccc4)cc3)c2=O)C1 (stereo not drawn) | RET V804M | cell-free assay, competition with immobilised ligand | 1 µM | – | 96
CNC(=O)C1CCN(c2cc(C)c(F)cc2NC(=O)c2ccc(-c3cc(O)ccc3C)c(C)c2)CC1 | RET | binding, competition with immobilised ligand | 1 µM | – | 45
Nc1ncc2c(n1)-c1c([nH]c3ccc(C4=CCOCC4)cc13)CCC2 | RET V804M | binding, competition with immobilised ligand | 1 µM | – | 68
Cc1cnc2nc1Nc1cccc(c1)COC/C=C/COCc1cc(ccc1OCCN1CCOCC1)N2 | RET V804L | binding | 0.1 µM | – | 5.2
CNC1C[S+]2CC[S+]3CC[S+](C1)[Ru-4]321([N]=C=S)[n]2c3ccc(OC)cc3c3c4c(c5cc(F)c[n+]1c5c32)C(=O)NC4=O (stereo not drawn) | RET | KinomeScan | 0.1 µM | relative to: untreated | 90
CN1CCN(Cc2ccc(NC(=O)c3cccc(C#Cc4cnc(N)c5ncccc45)c3)cc2C(F)(F)F)CC1 | RET | cell-free assay, competition with immobilised ligand | 0.5 µM | – | 0
CNS(=O)(=O)Nc1nccc(Cc2c(C)c3ccc(Oc4ncccc4F)cc3oc2=O)c1F | RET | cell-free assay, competition with immobilised ligand | 10 µM | – | 100
CCN1CCN(Cc2ccc(C(=O)Nc3ccc(C)c(NCc4cnc5[nH]ccc5c4OC)c3)cc2C(F)(F)F)CC1 | RET V804M | binding, competition with immobilised ligand | 1 µM | – | 2.2
Cc1ccc(-c2c(/C=C(\C#N)C(=O)NC(C)C)n(CCCO)c3ncnc(N)c23)cc1 | RET M918T | cell-free assay, competition with immobilised ligand | 1 µM | – | 56
